Assay results gathered from unrelated publications.
Compare with care: the assays were run in different laboratories. Numbers after ± are the reported error.
ABCG2: Broad substrate specificity ATP-binding cassette transporter ABCG2 (ABCG2, Homo sapiens, UniProt Q9UNQ0)
UniProt Q9UNQ0, sequence (whole entry, looked up): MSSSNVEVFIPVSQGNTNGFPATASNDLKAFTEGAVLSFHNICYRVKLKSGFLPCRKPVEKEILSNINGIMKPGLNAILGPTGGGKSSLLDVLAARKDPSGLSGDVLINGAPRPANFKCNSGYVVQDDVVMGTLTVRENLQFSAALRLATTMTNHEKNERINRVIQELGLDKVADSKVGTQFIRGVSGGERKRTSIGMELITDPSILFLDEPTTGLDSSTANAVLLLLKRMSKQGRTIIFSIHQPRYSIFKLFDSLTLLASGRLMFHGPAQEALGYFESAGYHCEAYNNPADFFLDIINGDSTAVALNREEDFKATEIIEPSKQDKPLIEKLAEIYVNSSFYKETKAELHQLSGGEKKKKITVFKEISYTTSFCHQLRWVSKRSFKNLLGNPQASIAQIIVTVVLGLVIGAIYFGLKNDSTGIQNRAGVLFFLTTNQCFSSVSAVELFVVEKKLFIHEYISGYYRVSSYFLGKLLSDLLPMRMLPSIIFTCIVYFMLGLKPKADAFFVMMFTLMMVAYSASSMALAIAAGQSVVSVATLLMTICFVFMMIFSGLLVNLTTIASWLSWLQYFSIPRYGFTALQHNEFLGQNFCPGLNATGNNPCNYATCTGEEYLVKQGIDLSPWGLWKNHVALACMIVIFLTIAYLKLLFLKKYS
ALB: Albumin (ALB, Homo sapiens, UniProt P02768)
CYP3A4: Cytochrome P450 3A4 (CYP3A4, Homo sapiens, UniProt P08684)
UniProt P08684, sequence (whole entry, looked up): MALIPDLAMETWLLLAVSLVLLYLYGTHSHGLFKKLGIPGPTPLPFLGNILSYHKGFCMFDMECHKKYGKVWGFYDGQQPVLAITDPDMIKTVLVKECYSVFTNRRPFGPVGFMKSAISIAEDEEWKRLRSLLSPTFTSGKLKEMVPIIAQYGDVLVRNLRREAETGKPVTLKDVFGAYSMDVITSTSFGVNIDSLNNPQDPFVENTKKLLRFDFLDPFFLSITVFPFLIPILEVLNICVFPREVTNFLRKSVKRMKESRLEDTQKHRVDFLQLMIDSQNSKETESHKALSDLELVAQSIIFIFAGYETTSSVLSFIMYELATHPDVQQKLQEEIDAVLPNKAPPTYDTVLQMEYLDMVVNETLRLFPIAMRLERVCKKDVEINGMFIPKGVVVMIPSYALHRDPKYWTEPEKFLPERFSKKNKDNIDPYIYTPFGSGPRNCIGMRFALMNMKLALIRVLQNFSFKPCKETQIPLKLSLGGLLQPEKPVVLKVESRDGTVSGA
UniProt Q09128, sequence (whole entry, looked up): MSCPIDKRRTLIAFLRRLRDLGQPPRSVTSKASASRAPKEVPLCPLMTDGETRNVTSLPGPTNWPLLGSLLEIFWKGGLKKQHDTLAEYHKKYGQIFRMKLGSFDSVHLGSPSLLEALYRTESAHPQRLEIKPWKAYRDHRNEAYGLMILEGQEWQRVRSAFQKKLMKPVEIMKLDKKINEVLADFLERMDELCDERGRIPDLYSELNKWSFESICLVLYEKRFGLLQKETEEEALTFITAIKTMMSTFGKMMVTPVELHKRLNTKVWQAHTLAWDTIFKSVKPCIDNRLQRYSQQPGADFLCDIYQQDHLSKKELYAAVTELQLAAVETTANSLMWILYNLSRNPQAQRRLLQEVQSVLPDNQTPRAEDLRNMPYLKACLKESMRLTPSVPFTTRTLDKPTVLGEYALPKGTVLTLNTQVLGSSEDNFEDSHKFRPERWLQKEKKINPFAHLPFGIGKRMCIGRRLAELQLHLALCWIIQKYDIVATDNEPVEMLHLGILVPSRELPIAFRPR
UniProt P11229, sequence (whole entry, looked up): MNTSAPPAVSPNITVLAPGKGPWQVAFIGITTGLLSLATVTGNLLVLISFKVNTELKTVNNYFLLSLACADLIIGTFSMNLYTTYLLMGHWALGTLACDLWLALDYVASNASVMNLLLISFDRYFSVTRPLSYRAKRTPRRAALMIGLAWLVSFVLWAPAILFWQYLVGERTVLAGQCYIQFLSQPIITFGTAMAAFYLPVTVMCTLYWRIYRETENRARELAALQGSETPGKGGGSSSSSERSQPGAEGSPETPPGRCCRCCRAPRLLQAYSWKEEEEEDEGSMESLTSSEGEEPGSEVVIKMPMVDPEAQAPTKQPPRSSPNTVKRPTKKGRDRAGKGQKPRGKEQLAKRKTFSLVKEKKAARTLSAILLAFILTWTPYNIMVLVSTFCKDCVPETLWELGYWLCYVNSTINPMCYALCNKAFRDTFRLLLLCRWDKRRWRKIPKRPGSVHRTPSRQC
UniProt Q8R431, sequence (whole entry, looked up): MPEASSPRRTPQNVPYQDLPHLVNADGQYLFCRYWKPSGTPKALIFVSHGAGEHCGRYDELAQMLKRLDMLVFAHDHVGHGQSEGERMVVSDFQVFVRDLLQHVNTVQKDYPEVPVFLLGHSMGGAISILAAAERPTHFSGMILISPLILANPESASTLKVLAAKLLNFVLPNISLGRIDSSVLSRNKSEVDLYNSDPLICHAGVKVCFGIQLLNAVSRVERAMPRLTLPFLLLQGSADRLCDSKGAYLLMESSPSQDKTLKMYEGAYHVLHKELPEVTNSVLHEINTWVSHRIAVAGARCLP
UniProt P00791, sequence (whole entry, looked up): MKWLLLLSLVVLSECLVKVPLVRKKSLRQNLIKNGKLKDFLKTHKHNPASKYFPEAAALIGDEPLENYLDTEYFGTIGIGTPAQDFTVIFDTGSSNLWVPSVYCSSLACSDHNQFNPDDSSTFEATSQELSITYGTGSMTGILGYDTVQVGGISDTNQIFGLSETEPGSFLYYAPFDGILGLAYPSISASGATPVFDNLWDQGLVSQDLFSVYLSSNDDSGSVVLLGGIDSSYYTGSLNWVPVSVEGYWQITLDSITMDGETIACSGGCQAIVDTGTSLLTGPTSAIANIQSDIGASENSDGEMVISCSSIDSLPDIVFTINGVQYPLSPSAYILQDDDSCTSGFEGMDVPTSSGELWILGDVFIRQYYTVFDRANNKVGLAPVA

Structure (SMILES)	target or system	test	test system	conditions	scale	measurement	result
COc1cc(OC)c(/C=C/C(=O)c2ccc3ccccc3c2)c(OC)c1	ABCG2	mitoxantrone efflux, flow cytometry	HEK293 transfected with ABCG2	5 µM, 30 min, added: mitoxantrone	baseline: 5 µM GF120918 as 100%	inhibition	42.1 ± 8.8%
O=C1Nc2ccccc2N(C(=O)CN2CCC(CCCCN3CCN(CCOC(=O)C4c5ccccc5Oc5ccccc54)CC3)CC2)c2ccccc21	CHRM1 (Homo sapiens, UniProt P11229)	ligand displacement, radioligand	–	–	–	Ki	0.00339 µM
O=C(/C=C/c1cccc2ccccc12)c1ccccc1O	ABCG2	mitoxantrone efflux, flow cytometry	HEK293 transfected with ABCG2	5 µM, 30 min, added: mitoxantrone	baseline: 5 µM GF120918 as 100%	inhibition	49.2 ± 7.2%
Cc1cc(C)c(-c2cc(C)c(OP(=O)([O-])OCCC[C@H](C(=O)[O-])N3CCN(CC(=O)[O-])CCN(C(C(=O)[O-])C(=O)[O-])CCN(CC(=O)[O-])CC3)cc2C)c(C)c1.[Gd+3]	ALB	binding	human serum albumin solution	0.67 mM HSA, pH 7.4, 37 °C, 1.4 T, 60 MHz	–	relaxivity r1	32.6 mM⁻¹ s⁻¹
O=C(/C=C/c1ccc([N+](=O)[O-])cc1)c1ccc2ccccc2c1	ABCG2	mitoxantrone efflux, flow cytometry	HEK293 transfected with ABCG2	5 µM, 30 min, added: mitoxantrone	baseline: 5 µM GF120918 as 100%	inhibition	16.7 ± 6.8%
CCC(CC)O[C@@H]1C=C(C(=O)OC(OC(=O)[C@@H](N)C(C)C)C(C)C)C[C@H](NC(=N)N)[C@H]1NC(C)=O (single isomer, unassigned)	Pepsin A (PGA, Sus scrofa, UniProt P00791)	stability	SGF with pepsin	pH 1.2, 37 °C	–	half-life	stable
O=C(O)CCC(NP(=O)(O)OCCC[C@@H](NC(=O)CC[C@H](NC(=O)CCCCCNC(=O)c1ccc([18F])cc1)C(=O)O)C(=O)O)C(=O)O (stereo partly drawn)	CWR22Rv1 tumour model	–	host not given, bone	4 h, tumour-bearing	–	tracer uptake	0.05 %ID/g
COc1cc(-c2nc3ccccc3s2)cc(CN2Cc3cccc(n3)CNCc3cccc(n3)C2)c1O	Cu2+ complex [MHL]+	UV-vis titration	–	room temperature	–	stability constant	2.88 log K
CC[C@H]1[C@@H](O)[C@@H]2[C@H](CC[C@]3(C)[C@@H]([C@H](C)CCOS(=O)(=O)[O-])CC[C@@H]23)[C@@]2(C)CC[C@@H](O)C[C@@H]12.[Na+]	–	–	ob/ob NASH mice, plasma	oral, 10 mg/kg once daily, 8 wk	–	plasma AST	257 ± 42.3 U/L
O=Cc1c(O)ccc2ccccc12	HUVEC	RNA sequencing, item: TMIE	–	75 µM, 24 h	baseline: DMSO	log2 fold change	3.59
CCCC[C@H](NC(=O)COCCOCCNC(=O)CN1CCN(CC(=O)O)CCN(CC(=O)O)CC1)C(=O)N[C@H]1CC(=O)NCCCC[C@@H](C(N)=O)NC(=O)[C@H](Cc2c[nH]c3ccccc23)NC(=O)[C@H](CCCNC(=N)N)NC(=O)[C@@H](Cc2ccccc2)NC(=O)[C@H](Cc2c[nH]cn2)NC1=O [copper-64 labelled]	–	–	C57 mice, skin	intravenous, 0.37 MBq, 24 h	–	tissue uptake	0.18 ± 0.16 %ID/g
CCCCOc1ccc(/C=C/C(=O)c2ccc3c(c2)OCO3)cc1	ABCG2	mitoxantrone efflux, flow cytometry	HEK293 transfected with ABCG2	5 µM, 30 min, added: mitoxantrone	baseline: 5 µM GF120918 as 100%	inhibition	33.3 ± 4%
Cc1cc(C)c(-c2cc(C)c(OP(=O)([O-])OCCC[C@H](C(=O)[O-])N3CCN(CC(=O)[O-])CCN(CC(=O)NCCC(=O)[O-])CCN(CC(=O)[O-])CC3)cc2C)c(C)c1.[Gd+3]	ALB	albumin binding, variable temperature NMRD fit	albumin-bound complex	0.1 mM, pH 7.4, fit 5-35 °C data, added: HSA 0.66 mM	–	rotational correlation time	11.6 ns
[64Cu+2].c1cnc(CNCc2ccc(CN3CCCN4CCNCCCN(CC4)CC3)cc2)nc1	CXCR4	–	NOD/SCID mouse, U87 and U87-stb-CXCR4 xenografts, stomach	iv, 240 min, ex vivo	–	tissue uptake	2.41 ± 0.33 %ID/g
C=CC(=O)Nc1cc(Nc2nccc(-c3cn(C)c4ccccc34)n2)c(OCC(F)(F)F)nc1N(C)CCN(C)C	CYP3A4	enzyme activity, inhibitor	human, liver microsomes	33.3 µM, testosterone probe	–	activity vs control	82.8%
[11CH3]Oc1ccc(C(=O)Nc2c(-c3cccs3)nc3ccccn23)cc1	δ-containing GABAA receptor	–	pig (female Landrace × Yorkshire × Duroc), thalamus	intravenous bolus, dose not given	baseline: baseline	total distribution volume	3.8 mL/cm³
Cn1c(=O)oc2ccc(-c3ccc(CC(C#N)NC(=O)C4CNCCCO4)c(F)c3)cc21 (stereo not drawn)	–	–	human	oral, 40 mg once daily, TEAE, multiple ascending dose	–	ALT increased incidence	11.1%
O=C(O)C1OC(Oc2ccc3c(=O)cc(-c4ccccc4)oc3c2)C(O)C(O)C1O (stereo not drawn)	ABCG2	glucuronide efflux, substrate	HeLa cells expressing UGT1A9	–	–	Km	9 ± 1.5 µM
O=C(O)c1ccc(/C=C/C(=O)c2ccc3ccccc3c2)cc1	ABCG2	mitoxantrone efflux, flow cytometry	HEK293 transfected with ABCG2	5 µM, 30 min, added: mitoxantrone	baseline: 5 µM GF120918 as 100%	inhibition	7.5 ± 1.9%
O=C(O)C1OC(Oc2c(-c3ccccc3)oc3ccc(O)cc3c2=O)C(O)C(O)C1O (stereo not drawn)	ABCG2	substrate, glucuronide efflux	HeLa-UGT1A9 cells	–	–	Vmax	34.7 ± 1.3 pmol/mg/min
COc1ccc(/C=C/C(=O)c2ccc3c(c2)OCO3)cc1	ABCG2	mitoxantrone efflux, flow cytometry	HEK293 transfected with ABCG2	5 µM, 30 min, added: mitoxantrone	baseline: 5 µM GF120918 as 100%	inhibition	24.7 ± 3.9%

Structure (SMILES)	target or system	test	test system	conditions	scale	measurement	result
O=C(O)C1OC(Oc2cccc(-c3cc(=O)c4ccccc4o3)c2)C(O)C(O)C1O (stereo not drawn)	ABCG2	substrate, vesicular transport	–	–	baseline: BCRP vesicles over HeLa-UGT1A9 cells	Km ratio	~3 fold
O=C(/C=C/c1ccccc1F)c1ccc2ccccc2c1	ABCG2	mitoxantrone efflux, flow cytometry	HEK293 transfected with ABCG2	5 µM, 30 min, added: mitoxantrone	baseline: 5 µM GF120918 as 100%	inhibition	29 ± 11%
O=C(O)C1OC(Oc2ccc(-c3cc(=O)c4ccccc4o3)cc2)C(O)C(O)C1O (stereo not drawn)	ABCG2	substrate	–	–	baseline: membrane vesicles over HeLa-UGT1A9 cells	difference in Km	< 50%
O=C(O)[C@@H]1C[C@@H](O)CN1C(=O)[C@@H]1CCCN1	iron(III) ion	complex formation, from log β	aqueous 0.15 M NaCl	25 °C, MAH−1 complex species	–	−ΔG	52.6 kJ/mol
O=C(O)C1OC(Oc2ccccc2-c2cc(=O)c3ccccc3o2)C(O)C(O)C1O (stereo not drawn)	ABCG2	glucuronide efflux, substrate	HeLa cells expressing UGT1A9	–	–	Km	5.4 ± 1.1 µM
C=C1CCC(O)CC1=CC=C1CCCC2(C)C1CCC2C(C)(C)O (stereo not drawn)	1,25-dihydroxyvitamin D(3) 24-hydroxylase, mitochondrial (Rattus norvegicus, UniProt Q09128)	substrate	phospholipid vesicles	1 h, 0.025 mol per mol phospholipid, 1 µM enzyme	–	number of products	2
NS(=O)(=O)c1ccc(NC(=O)NN[C@@H]2O[C@H](CO)[C@@H](O)[C@H](O)[C@H]2O)cc1	rabbit erythrocytes	–	–	8 µg/mL, 3 h	baseline: complete lysis	hemolysis	0%
Cc1sc2c(c1C)C(c1ccc(Cl)cc1)=N[C@@H](CC(=O)NCCOCCOCCOCCNC(=O)C(c1ccc(CNc3cccc4c3CN(C3CCC(=O)NC3=O)C4=O)cc1)N1CCOCC1)c1nnc(C)n1-2 (stereo partly drawn)	ALB	HPLC, immobilised HSA column	–	concentration not given	–	HSA binding	90%
Cc1cc(C)c(-c2cc(C)c(OP(=O)([O-])OCCC[C@H](C(=O)[O-])N3CCN(CC(=O)[O-])CCN(Cc4ccccc4[O-])CCN(CC(=O)[O-])CC3)cc2C)c(C)c1.[Gd+3]	ALB	albumin binding, variable temperature NMRD fit	albumin-bound complex	0.1 mM, pH 7.4, 37 °C, fit 5-35 °C data, added: HSA 0.66 mM	–	water residency time	0.7 ns
O=C(O)C1OC(Oc2c(-c3ccccc3)oc3cc(O)ccc3c2=O)C(O)C(O)C1O (stereo not drawn)	ABCG2	substrate, glucuronide efflux	HeLa-UGT1A9 cells	–	–	Vmax	24.3 ± 1.5 pmol/mg/min
[64Cu+2].c1ccc(CNCc2ccc(CN3CCCN4CCNCCCN(CC4)CC3)cc2)nc1	CXCR4	–	NOD/SCID mouse, U87 and U87-stb-CXCR4 xenografts, kidney	iv, 90 min, ex vivo	–	tissue uptake	36 ± 3.46 %ID/g
Cc1cc(C)c(-c2cc(C)c(OP(=O)([O-])OCCC[C@H](C(=O)[O-])N3CCN(CC(=O)[O-])CCN(Cc4cc([N+](=O)[O-])ccc4[O-])CCN(CC(=O)[O-])CC3)cc2C)c(C)c1.[Gd+3]	ALB	variable temperature NMRD	HSA-bound complex	–	–	ZFS modulation correlation time	25 ps
COc1ccc2cc(NC(=O)c3cc(-c4ccncc4)nc4ccccc34)ccc2c1	CYP3A4	substrate, LC-MS	baculosomes	–	–	kcat	0.02 s⁻¹
CCCCCCCCCCCCCCCC(=O)OCC(CSC[C@H](N)C(=O)N[C@@H](CO)C(=O)N[C@@H](CCCCN)C(=O)N[C@@H](CCCCN)C(=O)N[C@@H](CCCCN)C(=O)N[C@@H](CCCCN)C(=O)NCCCCCC(=O)N[C@@H](CCCCN)C(=O)N[C@@H](CC(C)C)C(=O)N[C@H](C(=O)N[C@@H](Cc1ccccc1)C(=O)N[C@@H](Cc1ccccc1)C(=O)N[C@@H](Cc1ccc2ccccc2c1)C(=O)O)C(C)C)OC(=O)CCCCCCCCCCCCCCC (stereo partly drawn)	Amyloid-beta precursor protein, fibrillar amyloid-beta (APP, Homo sapiens, UniProt P05067)	dynamic light scattering	supernatant	with amyloid-beta	–	hydrodynamic diameter	170 to 280 nm
Cc1cc(C)c(-c2cc(C)c(OP(=O)([O-])OCCC[C@H](C(=O)[O-])N3CCN(CC(=O)[O-])CCN(CC(=O)NCC(=O)[O-])CCN(CC(=O)[O-])CC3)cc2C)c(C)c1.[Gd+3]	ALB	albumin binding, variable temperature NMRD fit	albumin-bound complex	0.1 mM, pH 7.4, fit 5-35 °C data, added: HSA 0.66 mM	–	rotational correlation time	7.6 ns
CC(=O)[O-].O.O.O.O.[Mn+2].[O-]c1ccc(Br)cc1C=NCCN1CCOCC1	Escherichia coli	–	–	20 µL of 100 µM per disc	–	inhibition zone diameter	19 mm
N=C(N)NCCC[C@@H]1NC(=O)[C@H](CCCCNC(=O)CNC(=O)CNC(=O)CNC(=O)CC[C@H](NC(=O)CNC(=O)CNC(=O)CNC(=O)CC[C@H](NC(=O)CN2CCN(CC(=O)O)CCN(CC(=O)O)CCN(CC(=O)O)CC2)C(=O)NCC(=O)NCC(=O)NCC(=O)N[C@@H](CCC(=O)NCC(=O)NCC(=O)NCC(=O)NCCCC[C@@H]2NC(=O)[C@@H](Cc3ccccc3)NC(=O)[C@H](CC(=O)O)NC(=O)CNC(=O)[C@H](CCCNC(=N)N)NC2=O)C(=O)NCC(=O)NCC(=O)NCC(=O)NCCCC[C@@H]2NC(=O)[C@@H](Cc3ccccc3)NC(=O)[C@H](CC(=O)O)NC(=O)CNC(=O)[C@H](CCCNC(=N)N)NC2=O)C(=O)NCC(=O)NCC(=O)NCC(=O)NCCCC[C@@H]2NC(=O)[C@@H](Cc3ccccc3)NC(=O)[C@H](CC(=O)O)NC(=O)CNC(=O)[C@H](CCCNC(=N)N)NC2=O)NC(=O)[C@@H](Cc2ccccc2)NC(=O)[C@H](CC(=O)O)NC(=O)CNC1=O [indium-111 labelled]	–	–	female athymic nu/nu mice, lungs	intravenous, 72 h	–	tissue uptake	0.91 ± 0.08 %ID/g
O=C(O[C@H](CO)C(F)(F)F)N1C[C@@H]2[C@H](C1)[C@H]2c1ccn(-c2ccc([18F])nc2)n1	Monoglyceride lipase (Rattus norvegicus, UniProt Q8R431)	PET	Sprague-Dawley rats, whole brain	iv	–	maximum brain uptake	1.3 SUV
O=C(O)C1OC(Oc2ccc3oc(-c4ccccc4)cc(=O)c3c2)C(O)C(O)C1O (stereo not drawn)	ABCG2	substrate	–	–	baseline: membrane vesicles over HeLa-UGT1A9 cells	difference in Km	< 50%
COc1ccc(/C=C/C(=O)c2ccc3ccccc3c2)cc1	ABCG2	mitoxantrone efflux, flow cytometry	HEK293 transfected with ABCG2	5 µM, 30 min, added: mitoxantrone	baseline: 5 µM GF120918 as 100%	inhibition	49.7 ± 1.5%
Cc1ccc(C(=O)Nc2cc(Br)cc(C(F)(F)F)c2)cc1Nc1ncccn1	ABCG2	–	MCF7-FLV1000, overexpressing	added: mitoxantrone 5 µM	–	IC20	1.92 µM

A few entries again:
Structure (SMILES)	target or system	test	test system	conditions	scale	measurement	result
O=C(O)c1ccc(/C=C/C(=O)c2ccc3ccccc3c2)cc1	ABCG2	mitoxantrone efflux, flow cytometry	HEK293 transfected with ABCG2	5 µM, 30 min, added: mitoxantrone	baseline: 5 µM GF120918 as 100%	inhibition	7.5 ± 1.9%
O=C(O)C1OC(Oc2c(-c3ccccc3)oc3ccc(O)cc3c2=O)C(O)C(O)C1O (stereo not drawn)	ABCG2	substrate, glucuronide efflux	HeLa-UGT1A9 cells	–	–	Vmax	34.7 ± 1.3 pmol/mg/min
COc1ccc(/C=C/C(=O)c2ccc3c(c2)OCO3)cc1	ABCG2	mitoxantrone efflux, flow cytometry	HEK293 transfected with ABCG2	5 µM, 30 min, added: mitoxantrone	baseline: 5 µM GF120918 as 100%	inhibition	24.7 ± 3.9%
O=C(O)C1OC(Oc2cccc(-c3cc(=O)c4ccccc4o3)c2)C(O)C(O)C1O (stereo not drawn)	ABCG2	substrate, vesicular transport	–	–	baseline: BCRP vesicles over HeLa-UGT1A9 cells	Km ratio	~3 fold
